Measurements from different studies.
Each line is one published result; not all experiments were run side by side. Several values in a cell are separate wells, animals, samples, runs or records. Numbers after ± are the reported error.

The half-life of Cn1ncc(-c2nc(N[C@H]3CC[C@H](N)CC3)ncc2Cl)c1CC1CC1 is reported as 1850 min (HPLC-MS/MS; patients, plasma; oral, 11 mg, day 5).
CC[C@H](C)[C@H](NC(=O)[C@@H](NC(=O)[C@H](N)Cc1ccccc1)C(C)C)C(=O)N[C@@H](C)C(N)=O has a half-life of 792 min (fetal bovine serum; pH 7.4, 37 °C).
CCN1CC2(CCN(CCc3cc(F)ccc3F)CC2)O[C@H](C)C1=O has a half-life of 258 ± 12 min (ferret, plasma; intraperitoneal, 0.5 mg/kg).
N#Cc1ccncc1 has a half-life of 8770 min (PBS with 5% acetonitrile; 250 µM, pH 7.4, no glutathione).
CC(C)CC(=O)OC[C@H]1O[C@@](C#N)(c2ccc3c(N)ncnn23)[C@H](O)[C@@H]1O gave a half-life of 34.2 min (dog whole blood; 5 µM).
For CC(C)C[C@H](NC(=O)[C@H](Cc1ccccc1)NC(=O)[C@H](Cc1ccccc1)NC(=O)Cc1ccc(-c2ccccc2)cc1)C(=O)N[C@@H](CCCCN)C(=O)N[C@@H](CCCNC(=N)N)C(=O)N[C@H](C(=O)N[C@@H](Cc1c[nH]c2ccccc12)C(=O)N[C@@H](CCCCN)C(=O)N[C@@H](CCCNC(=N)N)C(=O)O)C(C)C, the half-life was 2.45 min (monkey liver microsomes).
The half-life of Nc1ncnc2c1ncn2[C@@H]1O[C@@H]2COP(=O)([S-])O[C@@H]3[C@H](O)[C@@H](COP([O-])(=S)O[C@H]2[C@H]1O)O[C@H]3n1cnc2c(N)ncnc21.[Na+].[Na+] (some centres unmarked) is reported as 4020 min (HPLC; 20% FBS in PBS; 100 µM, pH 7.4, 37 °C).
CC(C)C[C@@H](NC(=O)[C@H](Cc1ccccc1)NC(=O)CNC(=O)[C@@H](C)NC(=O)[C@@H](N)Cc1ccc(O)cc1)C(=O)O has a half-life of ~730 min (HPLC-UV; 20% rat brain homogenate; pH 7.4).
For C[C@]1(CO)Cc2ncn(-c3ccc(C#N)c(Cl)c3)c2C(=O)O1, the half-life was 324 min (healthy Japanese adults, plasma; 3 mg once daily, after first dose, multiple dose).
O=C/C=C/c1ccccc1 gave a half-life of 1.97 ± 0.07 min (phase II metabolic stability; human liver S9 fraction; 10 µM, pH 7.4, together with: UDPGA).
For CC[C@H](C)[C@@H]1NC(=O)[C@H](Cc2ccc(O)cc2)NC(=O)[C@@H](N)CSSC[C@@H](C(=O)N2CCC[C@H]2C(=O)N[C@@H](CC(C)C)C(=O)NCC(N)=O)NC(=O)[C@H](CC(N)=O)NC(=O)[C@H](CCC(N)=O)NC1=O, the half-life was 175000 min (phosphate buffer; 0.1 mg/mL, pH 4.5, 40 °C).
CC(O)(CS(=O)(=O)c1ccc(F)cc1)C(=O)Nc1ccc(C#N)c(C(F)(F)F)c1 (centres unmarked) has a half-life of 25.4 min (substrate depletion; phenobarbital/β-naphthoflavone-induced rat liver microsomes; 1 µM, pH 7.4, 37 °C, together with: NADPH).
The half-life of Cc1cc(C)nc(Nc2ncc(C(=O)NCCc3c(C)[nH]c4ccccc34)cn2)c1 is reported as > 400 min (simulated gastric fluid; 10 µM, pH 1.2, 37 °C).
CC(C)C[C@@H](NC(=O)[C@H](Cc1ccccc1)NC(=O)CNC(=O)[C@@H](C)NC(=O)[C@H](Cc1ccc(O)cc1)NC(=O)[C@@H]1CCCN1C(=O)[C@@H]1CCCN1C(=O)c1ccc[n+](C)c1)C(=O)O gave a half-life of 9 min (HPLC-UV; rat cerebellum homogenate; 100 µM, 37 °C).
With CN[C@H](CC(C)C)C(=O)N[C@H]1C(=O)N[C@@H](CC(N)=O)C(=O)N[C@H]2C(=O)N[C@H]3C(=O)N[C@H](C(=O)N[C@H](C(=O)O)c4cc(O)cc(O)c4-c4cc3ccc4O)[C@H](O)c3ccc(c(Cl)c3)Oc3cc2cc(c3O[C@@H]2O[C@H](CO)[C@@H](O)[C@H](O)[C@H]2O[C@H]2C[C@](C)(N)[C@H](O)[C@H](C)O2)Oc2ccc(cc2Cl)[C@H]1O the half-life was ~120 min (rabbit, serum).
For O=S(=O)(F)c1cc(C(F)(F)F)cc(C(F)(F)F)c1, the half-life was < 1 min (reactivity with N-α-acetyl-lysine, HPLC-MS; BBS buffer with acetonitrile; 1 mM, pH 10.2).
For CC[C@H](C)[C@H](NC(=O)[C@H](CO)NC(=O)[C@H](CC(=O)O)NC(=O)[C@H](CC(C)C)NC(=O)[C@H](CCCCN)NC(=O)[C@H](CCC(N)=O)NC(=O)[C@H](CC(N)=O)NC(=O)[C@H](CO)NC(=O)[C@H](CCCNC(=N)N)NC(=O)[C@H](CCCNC(=N)N)NC(=O)[C@@H](NC(=O)[C@H](Cc1c[nH]c2ccccc12)NC(=O)[C@H](CCC(=O)O)NC(=O)[C@H](CCCCN)NC(=O)[C@H](CO)NC(=O)[C@H](CCC(=O)O)NC(=O)[C@H](CCC(=O)O)NC(=O)[C@H](CC(C)C)NC(=O)[C@H](CC(=O)O)NC(=O)[C@H](CO)NC(=O)[C@H](CCCCN)NC(=O)[C@@H](NC(=O)[C@H](CCCCN)NC(=O)[C@H](CC(N)=O)NC(=O)[C@H](CC(C)C)NC(=O)[C@@H](NC(=O)[C@@H](NC(=O)[C@H](CO)NC(=O)[C@@H](NC(=O)[C@H](CC(=O)O)NC(=O)[C@@H](NC(=O)[C@@H]1CCCN1C(=O)[C@H](CC(=O)O)NC(=O)[C@H](CC(C)C)NC(=O)[C@H](C)NC(=O)[C@@H](NC(C)=O)C(C)C)[C@@H](C)CC)[C@@H](C)CC)[C@@H](C)CC)C(C)C)[C@@H](C)CC)[C@@H](C)CC)C(N)=O, the half-life was 0.333 min (UPLC; Tris-buffered saline; pH 7.6, 23 °C, together with: proteinase K 8 µg/mL).
With CC(C)C[C@@H](NC(=O)[C@H](Cc1ccccc1)NC(=O)CNC(=O)[C@@H](C)NC(=O)[C@H](Cc1ccc(O)cc1)NC(=O)[C@H](C)NC(=O)[C@@H]1CCCN1C(=O)c1ccc[n+](C)c1)C(=O)O the half-life was 24 min (HPLC-UV; 20% rat brain homogenate; pH 7.4).
CC(=O)OC/C(C)=C/CCP(=O)(OCOC(=O)c1ccccc1)Oc1ccc(C(C)C)cc1 (centres unmarked) gave a half-life of 0.85 min (50% CD1 mouse plasma; 100 µM, pH 7.5, 37 °C).
The half-life of N#Cc1cnccn1 is reported as 72500 min (PBS with 5% acetonitrile; 250 µM, pH 7.4, no glutathione).
The half-life of CCC(CNc1nc(-c2cn3ccnc3cc2C)nc2ccccc12)c1ccccc1 (centres unmarked) is reported as 6.9 min and 7 min (mouse liver microsomes).
The half-life of CC(C)C(=O)OC[C@H]1O[C@@H](n2ccc(NO)nc2=O)[C@H](O)[C@@H]1O is reported as 187 min (human plasma; 2 µM, 37 °C).
N=C(Nc1ccccc1)Nc1ccccc1 has a half-life of 54.4 min (substrate depletion; phenobarbital/β-naphthoflavone-induced rat liver microsomes; 1 µM, pH 7.4, 37 °C, together with: NADPH).
For C/C(=C\CCP(=O)(OCOC(=O)C1CCOCC1)Oc1ccc(C(C)C)cc1)CO (centres unmarked), the half-life was 0.45 min (50% CD1 mouse plasma; 100 µM, pH 7.5, 37 °C).
The half-life of C[C@H]1N=C(c2ccccc2F)c2cc(Br)ccc2-n2cnc(C(=O)O)c21 is reported as 435 min (mouse liver S9 fraction; 10 µM, glucuronidation).
For C/C=C1/CN2CC[C@]34C(=C(C(=O)OC)[C@H]1C[C@H]23)Nc1ccccc14, the half-life was 30.3 ± 0.7 min (rat liver microsomes, male; 1 µM, pH 7.4, protein 1 mg/mL, together with: NADPH 1 mM).
The half-life of CC(C)[N+](C)(CCOC(=O)C1c2ccccc2Oc2ccccc21)C(C)C is reported as 14.9 ± 1.6 min (human plasma; plasma stability).
CCCCCn1nc(C(=O)Nc2cccc3ccccc23)c2ccccc21 gave a half-life of 1.71 min (male human liver microsomes; 1 µM, pH 7.4, 37 °C).
For CC(C)C[C@@H](NC(=O)[C@H](Cc1ccccc1)NC(=O)CNC(=O)[C@@H](C)NC(=O)[C@H](Cc1ccc(O)cc1)NC(=O)[C@H](C)NC(=O)[C@H](C)NC(=O)c1ccc[n+](C)c1)C(=O)O, the half-life was 23 min (HPLC-UV; 20% rat brain homogenate; pH 7.4).
For COc1ccc(C(=O)OCOP(=O)(CC/C=C(\C)COC(C)=O)Oc2ccc(C(C)C)cc2)cc1 (centres unmarked), the half-life was 1.1 min (50% CD1 mouse plasma; 100 µM, pH 7.5, 37 °C).
With CCCCCCCCCCCCCCOC(=O)ONc1ccn([C@@H]2O[C@H](CO)[C@@H](O)[C@H]2O)c(=O)n1 the half-life was ~10 min (human plasma; 2 µM, 37 °C).
With CC(=O)OC/C(C)=C/CCP(=O)(OCOC(=O)C1CCOCC1)Oc1ccc(C(C)C)cc1 (centres unmarked) the half-life was 0.37 min (50% CD1 mouse plasma; 100 µM, pH 7.5, 37 °C).
With CC[C@H](C)[C@H](NC(=O)[C@H](Cc1ccccc1)NC(=O)[C@H](CC(=O)O)NC(=O)[C@H](CCCNC(=N)N)NC(=O)[C@H](Cc1ccccc1)NC(=O)[C@H](Cc1ccccc1)NC(=O)[C@H](CCCCN)NC(=O)[C@H](CO)NC(=O)[C@H](CC(C)C)NC(=O)[C@H](CCCNC(=N)N)NC(=O)[C@H](CCSC)NC(=O)[C@@H](N)CCC(=O)O)C(=O)N[C@@H](CC(C)C)C(=O)N[C@@H](CCC(N)=O)C(=O)N[C@@H](CCCNC(=N)N)C(=O)N[C@@H](CCCCN)C(=O)N[C@@H](CCCCN)C(=O)O the half-life was 90 min (trypsin/chymotrypsin in ammonium carbonate; 0.066 mM, pH 8.0, 37 °C, together with: trypsin/chymotrypsin 0.05 µg/mL).
[Cl][Ru-]([Cl])([Cl])[Cl].[Na+].c1ccc2[nH]ncc2c1.c1ccc2[nH]ncc2c1 has a half-life of 7320 min (ICP-MS, item: total ruthenium; advanced solid tumour patients, plasma; iv infusion, 80 mg/m2, cycle 1 cohort mean).
For CC(=O)OC/C(C)=C/CCP(=O)(OCOC(=O)CC1CCCCC1)Oc1ccc(C(C)C)cc1 (centres unmarked), the half-life was 3 min (50% CD1 mouse plasma; 100 µM, pH 7.5, 37 °C).
